Experimental data collected from several papers.
A part holds a random share of what one study measured.

Series 1
Target: Sal-like protein 4, full length isoform B (SALL4, Homo sapiens, UniProt Q9UJQ4-2, residues 1-616)
Technique: universal PBM
Form: double-stranded DNA, one strand shown
Medium: in vitro
Concentration: not given
Notes: 8-mer, flanks averaged, mean of replicates
Direction: higher = stronger binding
Residues (chain): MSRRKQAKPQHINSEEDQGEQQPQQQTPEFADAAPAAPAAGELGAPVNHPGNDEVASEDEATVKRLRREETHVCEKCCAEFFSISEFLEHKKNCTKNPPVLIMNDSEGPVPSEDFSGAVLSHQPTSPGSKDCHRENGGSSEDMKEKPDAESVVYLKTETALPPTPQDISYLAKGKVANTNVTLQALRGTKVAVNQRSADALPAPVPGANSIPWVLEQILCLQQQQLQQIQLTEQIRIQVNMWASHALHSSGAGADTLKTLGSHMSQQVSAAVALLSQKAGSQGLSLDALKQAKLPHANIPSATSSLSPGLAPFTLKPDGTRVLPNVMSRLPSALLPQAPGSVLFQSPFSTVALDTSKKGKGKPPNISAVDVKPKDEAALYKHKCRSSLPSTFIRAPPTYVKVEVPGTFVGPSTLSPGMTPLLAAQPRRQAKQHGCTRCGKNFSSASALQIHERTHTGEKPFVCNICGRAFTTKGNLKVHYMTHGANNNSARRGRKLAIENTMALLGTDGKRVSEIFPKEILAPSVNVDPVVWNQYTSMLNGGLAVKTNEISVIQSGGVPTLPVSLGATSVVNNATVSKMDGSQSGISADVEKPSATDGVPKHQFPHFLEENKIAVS
With `CCTACGCG` the E-score was -0.245.
For `ACTCGGTC`, the E-score was -0.186.
With `AGGAATTG` the E-score was 0.131.
For `ACATTGTG`, the E-score was 0.117.

Series 2
Target: Histone acetyltransferase KAT6A, winged helix 2, GST fusion (KAT6A, Homo sapiens, UniProt Q92794, residues 85-181)
Technique: protein binding microarray
Form: double-stranded DNA, one strand shown
Medium: in vitro
Concentration: not given
Notes: 8-mer, flanks averaged, mean of 2 arrays, mostly near background
Relative to: not given
Direction: higher = stronger binding
Construct (chain): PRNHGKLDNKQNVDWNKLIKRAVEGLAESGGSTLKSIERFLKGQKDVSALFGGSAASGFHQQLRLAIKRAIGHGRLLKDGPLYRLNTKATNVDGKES
For `GATATCCA`, the E-score was 0.111.
With `AACCTCCA` the E-score was -0.116.
For `TCCCTAAA`, the E-score was -0.0376.

Single results of other studies
RBFOX2 RRM domain, GST-SBP tag: RNA binding protein fox-1 homolog 2, RRM domain, GST-SBP tag (RBFOX2, Homo sapiens, UniProt O43251-10, residues 100-194)
`GGGAGUUCUACAGUCCGACGAUCAGCUAGGCUUCAUCUACCUCAGCUCUUUUAAAGCAGUCGCUACAGGAAAGAGGUAGGAGAGGCCGUGGAAAGCUUGUGUCCAGACGUCACUCCGGACAGUCCGACUUCCGUGGAAUUCUCGGGUGCCAA`: “RBNS enrichment (R)” 0.268 (RBFOX2 RRM domain, GST-SBP tag; RNA Bind-n-Seq; RNA, in vitro; 365 nM, natural RNA segment, single round, ends assumed; relative to: no-protein control, higher = stronger binding).
`PhoQ, residues 284 288 289 292 302 303 SSYNSA` gave a fold induction of 3.09 (PhoP, residues 12 14 15 18 19 VQGLL (Escherichia coli, UniProt P23836); Sort-seq, measured: YFP reporter; E. coli; PhoQ-PhoP variant library, with: 10 µM Mg2+; relative to: high Mg2+ state, higher = stronger signaling).
`GGGAGUUCUACAGUCCGACGAUCGAGGCCCUGCAGAGCCCACCUGUGGGGAAAGAGAAGGGGCAGCUUCCGGAUUUUCUUUUGGGGGUUAGAAGGUCAGGUGUGGAGACUGCUCGCCAGUCUCUGUGAGCCUAUGGAAUUCUCGGGUGCCAA` — result for “RBNS enrichment (R)”: 0.442 (RBFOX2 RRM domain, GST-SBP tag; RNA Bind-n-Seq; RNA, in vitro; 365 nM, natural RNA segment, single round, ends assumed; relative to: no-protein control, higher = stronger binding).

For quick reference, copied from above (series 1):
For `ACATTGTG`, the E-score was 0.117.
